Experimental data collected from several papers.
Compare with care: the assays were run in different laboratories. “And” joins repeats or separate records; there may be more than shown. pIC50: −log10 of the molar value.
BCHE: Cholinesterase (BCHE, Equus caballus, UniProt P81908)
HLA class I histocompatibility antigen, B alpha chain: HLA class I histocompatibility antigen, B alpha chain (Homo sapiens, UniProt P01889)
PFF0160c E182D: Dihydroorotate dehydrogenase (quinone), mitochondrial (PFF0160c, Plasmodium falciparum, UniProt Q08210, E182D)
PFF0160c: Dihydroorotate dehydrogenase (quinone), mitochondrial (PFF0160c, Plasmodium falciparum, UniProt Q08210)
Sialidase-3: Sialidase-3 (Homo sapiens, UniProt Q9UQ49)

Compound | target | test | setting | quantity | result
CCN(C)C(=O)Oc1ccc(CCC(=O)N2CCc3ccccc3C2)cc1OC | BCHE | enzyme activity, inhibitor, Ellman | – | pIC50 | 5.16
CC(C)[C@H](NC(=O)[C@H](Cc1ccccc1)NC(=O)[C@H](CCCNC(=N)N)NC(=O)[C@H](CC(=O)O)NC(=O)[C@H](Cc1ccc(O)cc1)NC(=O)[C@@H](NC(=O)[C@@H](N)CCCCN)C(C)C)C(=O)N[C@@H](Cc1c[nH]cn1)C(=O)N[C@@H](Cc1ccccc1)C(=O)O | HLA class I histocompatibility antigen, B alpha chain | cell-free assay | – | pIC50 | 4.84
Cc1cc(Nc2ccc(C)c(C)c2)n2nc(C)nc2n1 | PFF0160c E182D | enzyme activity, inhibitor, absorbance | – | pIC50 | < 5.00
CCOC(=O)c1nn(C)c(Cc2ccc(C(F)(F)F)nc2)c1C | PFF0160c | enzyme activity, inhibitor | – | pIC50 | 6.40
CC(C)CNC(=O)N[C@H]1[C@H]([C@H](O)[C@H](O)CO)OC(C(=O)O)=C[C@@H]1O | Sialidase-3 | enzyme activity, inhibitor | – | pIC50 | 3.72
O=C(Nc1cccc(Cl)c1Cl)Nc1ccnc2ccccc12 | PFF0160c | enzyme activity, inhibitor, absorbance | – | pIC50 | 5.81
CCN(CC)C(=O)Oc1ccc(CCC(=O)N2CCC(Cc3ccccc3)CC2)cc1OC | BCHE | enzyme activity, inhibitor, Ellman | – | pIC50 | 5.55
CCCCCC(=O)N(C)[C@H]1[C@H]([C@H](O)[C@H](O)CO)OC(C(=O)O)=C[C@@H]1O | Sialidase-3 | enzyme activity, inhibitor | – | pIC50 | < 3.30
[2H]c1c([2H])c([C@]2([2H])CCCN2C(=O)C(C)(C)Oc2ccc3cn[nH]c3c2)c([2H])c([2H])c1C([2H])([2H])[2H] | MST1R (Homo sapiens, UniProt Q04912) | binding, competition with immobilised ligand | 1 µM | remaining binding | 96%
CN(C(=O)CC(C)(C)C)[C@H]1[C@H]([C@H](O)[C@H](O)CO)OC(C(=O)O)=C[C@@H]1O | Sialidase-3 | enzyme activity, inhibitor | – | pIC50 | 3.72
CC1(C)NC(=O)N(c2ccc(F)c(C(F)(F)F)c2)C1=O | Androgen receptor (AR, Homo sapiens, UniProt P10275) | reporter gene, antagonist | – | pIC50 | 5.60
Cn1c(=O)ccc2ccc(F)c(CCNC[C@H]3CN(c4cnc5c(n4)NC(=O)CO5)C(=O)O3)c21 | gyrA (Escherichia coli K-12, UniProt P0AES4) | enzyme activity, inhibitor | – | pIC50 | 8.34
CSCC[C@H](NC(=O)[C@H](CO)NC(=O)[C@H](CC(C)C)NC(=O)[C@@H](NC(=O)[C@H](Cc1c[nH]cn1)NC(=O)[C@H](CCCCN)NC(=O)[C@H](Cc1ccccc1)NC(=O)[C@H](CCC(N)=O)NC(=O)[C@@H](N)CCCCN)[C@@H](C)O)C(=O)O | HLA class I histocompatibility antigen, B alpha chain | cell-free assay | – | pIC50 | 4.16
Cc1cc(Nc2ccc(C)c(Cl)c2)n2ncnc2n1 | PFF0160c | enzyme activity, inhibitor, absorbance | – | pIC50 | 6.31
CCn1cc(C2CC2)c2c(Cc3ccc(C(F)(F)F)c(C#N)c3)n(C)nc2c1=O | PFF0160c | enzyme activity, inhibitor | – | pIC50 | 7.80
O=C(O)C(F)(F)C(F)(F)C(F)(F)C(F)(F)C(F)(F)C(F)(F)C(F)(F)F | AKR1C3 (Homo sapiens, UniProt P42330) | enzyme activity, inhibitor, fluorescence | – | pIC50 | 4.95

Compound | target | test | setting | quantity | result
CC(C)C[C@H](NC(=O)[C@H](Cc1ccccc1)NC(=O)[C@H](Cc1ccc(O)cc1)NC(=O)CNC(=O)[C@H](CCCCN)NC(=O)[C@H](CO)NC(=O)[C@H](CCC(N)=O)NC(=O)CNC(=O)[C@@H](NC(=O)[C@H](CO)NC(=O)[C@@H]1CCCN1C(=O)[C@H](CO)NC(=O)[C@H](CCC(N)=O)NC(=O)[C@H](Cc1ccc(O)cc1)NC(=O)[C@H](CCC(=O)O)NC(=O)[C@H](C)NC(=O)[C@H](CCCCN)NC(=O)[C@@H](N)Cc1ccccc1)C(C)C)C(=O)N[C@@H](Cc1ccccc1)C(=O)N[C@@H](CCCNC(=N)N)C(=O)N1CCC[C@H]1C(=O)N[C@@H](CCCNC(=N)N)C(=O)N[C@@H](CC(N)=O)C(N)=O | NMUR2 (Homo sapiens, UniProt Q9GZQ4) | ligand displacement, radioligand | – | pIC50 | 10.39
CC(=O)N(C)[C@H]1[C@H]([C@H](O)[C@H](O)CO)OC(C(=O)O)=C[C@@H]1O | Sialidase-4 (Homo sapiens, UniProt Q8WWR8) | enzyme activity, inhibitor | – | pIC50 | 3.40
CCn1cc(C)c2c([C@H](O)c3ccc(C(F)(F)F)nc3)n(C)nc2c1=O | PFF0160c | enzyme activity, inhibitor | – | pIC50 | 7.10
c1ccc2[nH]c(Nc3ccc(Nc4nc5ccccc5[nH]4)cc3)nc2c1 | PFF0160c E182D | enzyme activity, inhibitor, absorbance | – | pIC50 | 5.81
CN1C(=O)Cc2ccc(F)c(CCNC[C@H]3CN(c4ccc5c(n4)NC(=O)CO5)C(=O)O3)c21 | KCNH2 (Homo sapiens, UniProt Q12809) | ion current, inhibitor, patch clamp | 2 min, pH 7.4 | pIC50 | 4.60
CCn1ccc2c([C@](C)(O)c3cnc(C(F)(F)F)c(Cl)c3)n(C)nc2c1=O | PFF0160c | enzyme activity, inhibitor | – | pIC50 | 7.30
COc1ccc2[nH]c3c(c2c1)CCN(C)CC3 | Voltage-dependent N-type calcium channel subunit alpha-1B (Homo sapiens, UniProt Q00975) | ion current, inhibitor, patch clamp | – | pIC50 | 3.72 and < 3.74
CC[C@H](C)[C@H](NC(=O)[C@H](Cc1c[nH]cn1)NC(=O)CNC(=O)[C@H](Cc1ccccc1)NC(=O)[C@H](CC(C)C)NC(=O)[C@@H](N)CCCNC(=N)N)C(=O)N[C@H](C(=O)N[C@@H](CCC(=O)O)C(=O)N[C@@H](Cc1ccc(O)cc1)C(=O)O)[C@@H](C)O | HLA class I histocompatibility antigen, B alpha chain | cell-free assay | – | pIC50 | 4.26
O=c1c2cccnc2sn1-c1ccccc1 | PFF0160c | enzyme activity, inhibitor, absorbance | – | pIC50 | < 5.00
Cc1cn(C2CC2)c(=O)c2nn(C)c(Cc3ccc(C(F)(F)F)nc3)c12 | PFF0160c | enzyme activity, inhibitor | – | pIC50 | 7.10
CCCNC(=O)c1ccnc(-c2ccc(CNC3Cc4ccccc4C3)cc2)c1 | PFF0160c E182D | enzyme activity, inhibitor, absorbance | – | pIC50 | < 5.00
Cc1cn([C@H]2C[C@H](OP(=O)(O)OC[C@H]3O[C@@H](n4cc(C)c(=O)[nH]c4=O)C[C@@H]3O)[C@@H](COP(=O)(O)OP(=O)(O)OP(=O)(O)O)O2)c(=O)[nH]c1=O | dgt (Salmonella enterica, UniProt A0A5H6DAK1) | enzyme activity, inhibitor | – | pIC50 | 5.47
c1nc2nc3c(c(Nc4ccc5c(c4)CCC5)n2n1)CCC3 | PFF0160c | enzyme activity, inhibitor, absorbance | – | pIC50 | 5.60
CC(C)n1ccc2c(Cc3ccc(C(F)(F)F)nc3)n(C)nc2c1=O | PFF0160c | enzyme activity, inhibitor | – | pIC50 | 4.90
CCC1(c2ccccc2)NC(=O)N(NC(=O)c2ccc3noc(-c4ccccc4)c3c2)C1=O (centres unmarked) | PFF0160c | enzyme activity, inhibitor, absorbance | – | pIC50 | < 5.00
CCN(C)C(=O)Oc1ccc(CCC(=O)N2CCN(Cc3ccccc3)CC2)cc1OC | BCHE | enzyme activity, inhibitor, Ellman | – | pIC50 | 4.97

Some of these lines once more:
Compound | target | test | setting | quantity | result
CCn1ccc2c([C@](C)(O)c3cnc(C(F)(F)F)c(Cl)c3)n(C)nc2c1=O | PFF0160c | enzyme activity, inhibitor | – | pIC50 | 7.30
COc1ccc2[nH]c3c(c2c1)CCN(C)CC3 | Voltage-dependent N-type calcium channel subunit alpha-1B (Homo sapiens, UniProt Q00975) | ion current, inhibitor, patch clamp | – | pIC50 | 3.72 and < 3.74
CC[C@H](C)[C@H](NC(=O)[C@H](Cc1c[nH]cn1)NC(=O)CNC(=O)[C@H](Cc1ccccc1)NC(=O)[C@H](CC(C)C)NC(=O)[C@@H](N)CCCNC(=N)N)C(=O)N[C@H](C(=O)N[C@@H](CCC(=O)O)C(=O)N[C@@H](Cc1ccc(O)cc1)C(=O)O)[C@@H](C)O | HLA class I histocompatibility antigen, B alpha chain | cell-free assay | – | pIC50 | 4.26
O=c1c2cccnc2sn1-c1ccccc1 | PFF0160c | enzyme activity, inhibitor, absorbance | – | pIC50 | < 5.00
Cc1cn(C2CC2)c(=O)c2nn(C)c(Cc3ccc(C(F)(F)F)nc3)c12 | PFF0160c | enzyme activity, inhibitor | – | pIC50 | 7.10
